Experimental data of several laboratories.
Parts stem from different laboratories: compare values within a part only.
Sequence of UniProt P10398 (whole entry, looked up): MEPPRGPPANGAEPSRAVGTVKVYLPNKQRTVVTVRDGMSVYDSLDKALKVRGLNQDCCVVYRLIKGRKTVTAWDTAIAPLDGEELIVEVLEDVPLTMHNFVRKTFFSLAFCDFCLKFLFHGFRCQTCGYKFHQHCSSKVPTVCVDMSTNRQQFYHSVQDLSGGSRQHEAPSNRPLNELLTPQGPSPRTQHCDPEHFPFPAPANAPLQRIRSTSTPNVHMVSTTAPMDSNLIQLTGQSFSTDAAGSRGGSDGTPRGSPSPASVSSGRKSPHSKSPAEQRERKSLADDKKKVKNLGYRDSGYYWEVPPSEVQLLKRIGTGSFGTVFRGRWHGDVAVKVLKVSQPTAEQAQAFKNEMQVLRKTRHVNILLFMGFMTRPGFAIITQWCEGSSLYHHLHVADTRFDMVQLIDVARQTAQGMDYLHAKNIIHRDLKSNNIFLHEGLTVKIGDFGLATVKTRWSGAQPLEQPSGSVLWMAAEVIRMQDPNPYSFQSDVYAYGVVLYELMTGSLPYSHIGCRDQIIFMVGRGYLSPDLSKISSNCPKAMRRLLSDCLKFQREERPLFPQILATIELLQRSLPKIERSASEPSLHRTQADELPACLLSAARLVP

Series 1
Target: Ras GTPase-activating protein-binding protein 1, full length (G3BP1, Homo sapiens, UniProt Q13283)
Sequence of UniProt Q13283 (whole entry, looked up): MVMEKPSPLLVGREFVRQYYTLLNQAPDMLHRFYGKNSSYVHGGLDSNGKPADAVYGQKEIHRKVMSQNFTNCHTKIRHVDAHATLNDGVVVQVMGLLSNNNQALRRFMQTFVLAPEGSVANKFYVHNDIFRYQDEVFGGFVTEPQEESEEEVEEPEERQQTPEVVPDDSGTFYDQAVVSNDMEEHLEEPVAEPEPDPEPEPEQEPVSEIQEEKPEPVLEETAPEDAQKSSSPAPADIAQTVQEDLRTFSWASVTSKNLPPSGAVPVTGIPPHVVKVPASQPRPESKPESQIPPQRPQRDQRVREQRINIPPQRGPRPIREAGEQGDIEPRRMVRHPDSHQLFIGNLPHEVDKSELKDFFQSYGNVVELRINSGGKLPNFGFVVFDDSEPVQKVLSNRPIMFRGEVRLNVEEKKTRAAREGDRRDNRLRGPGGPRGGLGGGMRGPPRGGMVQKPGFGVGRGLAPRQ
Technique: RNA Bind-n-Seq
Form: RNA
Medium: in vitro
Concentration: 200 nM
Notes: whole 134-nt RNA, ends assumed
With: 150 mM KCl
Relative to: input library
Reading: higher = stronger binding
Quantity: log2 enrichment
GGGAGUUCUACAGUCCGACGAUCAGUCCUGUGCUACACAUCGUAUGUACCGAAUCGGUUUUUGGUUUUUGGGGUUUUUGGGAAAGUAUUAUGUUACGCCGUUCGGAUCUGCACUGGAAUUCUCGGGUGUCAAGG: -1.05
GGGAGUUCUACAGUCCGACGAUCUCCUGUGCUACACAUCGUAUGUACCGAAUCGGGGAAAAAGGGGAAAAAGGGAAAAAGGGGAAAGUAUUAUGUUACGCCGUUCGGAUCUGCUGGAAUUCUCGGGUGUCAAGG: 0.219
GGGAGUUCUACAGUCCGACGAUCAAGUCCUGUGCUACACAUCGUAUGUACCGAAUCGGGAAAAGGGGAAAAGGAAAAGGGAAAGUAUUAUGUUACGCCGUUCGGAUCUGCACUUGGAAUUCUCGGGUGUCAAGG: -0.561
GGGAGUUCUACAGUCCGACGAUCCCUGUGCUACACAUCGUAUGUACCGAAUCGGGGAAAAAAGGGGAAAAAAGGAAAAAAGGGAAAGUAUUAUGUUACGCCGUUCGGAUCUGCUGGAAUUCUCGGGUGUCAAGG: -0.442
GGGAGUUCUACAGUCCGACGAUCUUCAAAACAGAAUCCUUCCAGUCCUCUUCAGCGUUUAAUUCCAGGCUCAAACUUGGACAGUGAACCCAGAAUUCAAACAGAUAUACUAAAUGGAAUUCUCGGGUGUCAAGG: 0.464
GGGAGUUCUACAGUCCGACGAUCGCAGGAAGUAAAAACAAAUGGAAAUGCUUCGGAUAGUGGCAGGGGUGGGAGUUGCUAAGGAAAGGGUGGGAUGGGAGUGGGUAAAGAGUUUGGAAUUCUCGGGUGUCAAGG: 0.95
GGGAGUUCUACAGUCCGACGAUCAAGUCCUGUGCUACACAUCGUAUGUACCGAAUCGGAGGUUUUUUUGGAAAAAAAGGAAAGUAUUAUGUUACGCCGUUCGGAUCUGCACUUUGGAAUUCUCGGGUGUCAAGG: -1.3
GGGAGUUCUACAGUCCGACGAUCUGCUGAAGCUCACACCCGUGGACCACCCAGACUGCCUGCCGCUACAGGAUGCCCUCCGCAUCUCCCAGGACUUCUUUCCGGCAUCAGUGUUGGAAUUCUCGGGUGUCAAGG: -0.334

Series 2
Target: Hepatocyte nuclear factor 3-beta, forkhead domain (FOXA2, Homo sapiens, UniProt Q9Y261, residues 142-269)
Technique: protein-binding microarray
Form: double-stranded DNA, one strand shown
Medium: in vitro
Concentration: not given
Notes: k-mer, scored over probes, only values ≥0.25
Reading: higher = stronger binding
Quantity: E-score
Target sequence (chain): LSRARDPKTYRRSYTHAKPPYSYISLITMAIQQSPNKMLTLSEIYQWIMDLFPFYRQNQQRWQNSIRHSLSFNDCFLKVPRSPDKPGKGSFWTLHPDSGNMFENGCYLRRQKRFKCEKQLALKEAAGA
AGTTCATA: 0.305
AATATGTG: 0.372
ATTGTTGG: 0.298
AAACATAC: 0.277
TAGTTGAA: 0.257
ATACATAA: 0.344
TAAAGTCA: 0.262
GTAATTAA: 0.29

Mixed results
O=C(O)c1cc2ccc(Cl)c(Cl)c2[nH]c1=O — remaining compound (human, microsomes or S9; 2 µM, 0.5 h): 62.9%
CCN(CC)CCNC(=O)c1c(C)[nH]c(/C=C2\C(=O)Nc3ccc(Cl)cc32)c1C — remaining activity (ARAF (Homo sapiens, UniProt P10398); enzyme activity, inhibitor; 0.5 µM): 132%
